Measured values collected from several papers.
Parts stem from different laboratories: compare values within a part only. Positions count from the first letter of the parent shown.

Study 1
Target: Interferon regulatory factor 5, full length, phosphomimetic (IRF5, Homo sapiens, UniProt Q13568-2, residues 1-514, K96S/S451D/S453D/S456D/S462D)
Method: protein-binding microarray
Form: double-stranded DNA, one strand shown
Medium: in vitro
Concentration: 250 nM
Notes: 60-bp whole probe
With: salmon DNA 0.4 mg/ml
Relative to: random background probes
Direction: higher = stronger binding
Shared flanks, not repeated: GCCTAGCAC … GTCTTGATTCGCTTGACGCTGCTG
Oligonucleotide	log fluorescence [z-score]
TCAACTCTCAGAATCTCACTGTGCTAG	0.418
GACGGACTGCGACTGGGGACGTGCTAG	-0.668
CTCAGGTAATATTTCCTGCTGTGCTAG	-0.126
GACGATTTCGGGTATCGAGCCGTGCTA	4.27
TAGTTTTCATTTTCTGAATGTGTGCTA	4.16
TTAGGTTCCGGACTGGGTTAGTGCTAG	0.139
GACGGTTTCGTCTATCGGGACGTGCTA	4.91
CCAGGGCTCTAGAGAAATAGGTGCTAG	-0.431
CTCCTCTCTGGGTCAAAGGTGTGCTAG	-0.44

Study 2
Target: CCNA2, cyclin fold, Cln2 fusion (human)
Method: yeast growth competition, sequencing
Medium: yeast
Notes: weak parent motif
Relative to: not given
Direction: higher = stronger binding
Parent: SLBP docking peptide (human); ARYKRKLLINDFG
Change	normalised enrichment score
Y3H	0.963
A1V	0.87
R5K L8F	1.54
D11C	2.18
L7M	1.28

Study 3
Target: Centromere-binding protein 1, full length, N-terminal tag (CBF1, Saccharomyces cerevisiae, UniProt P17106, residues 1-351)
Sequence of UniProt P17106 (whole entry, looked up): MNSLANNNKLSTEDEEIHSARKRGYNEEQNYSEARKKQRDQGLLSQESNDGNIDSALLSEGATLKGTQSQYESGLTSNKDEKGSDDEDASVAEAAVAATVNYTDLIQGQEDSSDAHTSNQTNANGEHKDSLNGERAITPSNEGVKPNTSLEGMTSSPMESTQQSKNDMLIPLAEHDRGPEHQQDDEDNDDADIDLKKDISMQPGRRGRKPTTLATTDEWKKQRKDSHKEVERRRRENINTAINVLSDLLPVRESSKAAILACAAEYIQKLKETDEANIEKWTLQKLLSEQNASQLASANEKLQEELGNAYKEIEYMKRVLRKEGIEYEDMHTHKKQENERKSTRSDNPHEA
Method: protein-binding microarray
Form: double-stranded DNA, one strand shown
Medium: in vitro
Concentration: 0.8 µM
Notes: whole 60-bp probe, no competitor
Direction: higher = stronger binding
Shared flanks, not repeated: … GTCTTGATTCGCTTGACGCTGCTG
Oligonucleotide	fluorescence intensity [a.u.]
CTAGAATGCAGGGGTGACGTCCTTCTTCGGGTGTTC	540
CTATTTTGATGGAATCTGCTGATTTTTTTACCTTTC	583
GAATCCACAGAGCTTCACATGTTTTACACCTCTTAG	551
CCTAACTACTATACCAGTGTGACATAGCTTCGTACA	578
GAAAACTATCACTTACACCTGAGTGTTGTCATTTAG	521
CTAGTAATTAAAGATCATGTTGGAGTAAAAATCTTC	575
GAATAGTGAAATATGCACATGAAATTGTATTGGTAG	550
GAAACAGGGAAAGTACACGTGAAATTTTAAACTTAG	2180
CTACCCGAATGTTGTAACATCAAAGCCAAGCACTTC	512

Mixed results
Substance	target	test	system	conditions	how to read	endpoint	value
PhoQ, residues 284 288 289 292 302 303 NLSRDF	PhoP, residues 12 14 15 18 19 STWGI (Escherichia coli, UniProt P23836)	Sort-seq, refers to: YFP reporter	E. coli	PhoQ-PhoP variant library, with: 10 µM Mg2+	relative to: high Mg2+ state, higher = stronger signaling	fold induction	10.7
